Assay results of several laboratories.
Chain of UniProt P42336 (whole entry, unmodified, looked up): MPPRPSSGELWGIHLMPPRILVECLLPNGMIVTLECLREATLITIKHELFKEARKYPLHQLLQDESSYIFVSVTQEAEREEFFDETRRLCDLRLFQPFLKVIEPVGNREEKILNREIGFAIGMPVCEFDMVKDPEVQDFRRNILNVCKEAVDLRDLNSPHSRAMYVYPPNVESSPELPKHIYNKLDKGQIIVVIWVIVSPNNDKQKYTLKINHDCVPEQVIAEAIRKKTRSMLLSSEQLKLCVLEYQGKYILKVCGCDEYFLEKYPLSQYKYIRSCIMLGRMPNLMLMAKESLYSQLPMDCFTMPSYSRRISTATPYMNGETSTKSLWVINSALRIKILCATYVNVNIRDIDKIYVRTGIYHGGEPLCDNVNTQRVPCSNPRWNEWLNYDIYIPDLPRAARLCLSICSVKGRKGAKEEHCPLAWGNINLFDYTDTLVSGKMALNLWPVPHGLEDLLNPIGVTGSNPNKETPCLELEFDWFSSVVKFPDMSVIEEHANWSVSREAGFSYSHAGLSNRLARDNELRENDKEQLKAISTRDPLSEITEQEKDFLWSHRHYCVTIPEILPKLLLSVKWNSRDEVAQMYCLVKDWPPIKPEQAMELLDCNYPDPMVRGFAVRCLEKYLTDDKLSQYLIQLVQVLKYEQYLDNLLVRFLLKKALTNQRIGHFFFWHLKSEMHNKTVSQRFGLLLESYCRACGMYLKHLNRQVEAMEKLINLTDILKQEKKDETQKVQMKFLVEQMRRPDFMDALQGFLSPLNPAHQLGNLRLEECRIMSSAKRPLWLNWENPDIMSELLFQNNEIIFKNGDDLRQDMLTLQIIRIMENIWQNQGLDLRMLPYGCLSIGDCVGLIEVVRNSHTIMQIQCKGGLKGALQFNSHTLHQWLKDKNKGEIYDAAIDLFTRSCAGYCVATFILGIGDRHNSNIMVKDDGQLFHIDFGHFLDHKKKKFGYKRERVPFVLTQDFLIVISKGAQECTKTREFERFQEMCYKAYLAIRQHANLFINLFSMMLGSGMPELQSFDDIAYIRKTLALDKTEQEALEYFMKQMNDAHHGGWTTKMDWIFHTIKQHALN
Chain of UniProt P34972 (whole entry, looked up): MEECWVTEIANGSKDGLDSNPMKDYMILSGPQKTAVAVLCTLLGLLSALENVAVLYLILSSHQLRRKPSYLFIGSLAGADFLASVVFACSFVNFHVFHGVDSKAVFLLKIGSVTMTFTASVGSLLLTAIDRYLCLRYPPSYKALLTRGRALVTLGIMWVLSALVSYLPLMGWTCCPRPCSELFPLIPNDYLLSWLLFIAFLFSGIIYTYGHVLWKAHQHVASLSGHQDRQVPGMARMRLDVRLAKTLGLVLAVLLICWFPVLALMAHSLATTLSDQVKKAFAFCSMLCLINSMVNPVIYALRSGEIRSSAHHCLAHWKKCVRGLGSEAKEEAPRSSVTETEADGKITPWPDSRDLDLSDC
Chain of UniProt Q9UIF8 (whole entry, unmodified, looked up): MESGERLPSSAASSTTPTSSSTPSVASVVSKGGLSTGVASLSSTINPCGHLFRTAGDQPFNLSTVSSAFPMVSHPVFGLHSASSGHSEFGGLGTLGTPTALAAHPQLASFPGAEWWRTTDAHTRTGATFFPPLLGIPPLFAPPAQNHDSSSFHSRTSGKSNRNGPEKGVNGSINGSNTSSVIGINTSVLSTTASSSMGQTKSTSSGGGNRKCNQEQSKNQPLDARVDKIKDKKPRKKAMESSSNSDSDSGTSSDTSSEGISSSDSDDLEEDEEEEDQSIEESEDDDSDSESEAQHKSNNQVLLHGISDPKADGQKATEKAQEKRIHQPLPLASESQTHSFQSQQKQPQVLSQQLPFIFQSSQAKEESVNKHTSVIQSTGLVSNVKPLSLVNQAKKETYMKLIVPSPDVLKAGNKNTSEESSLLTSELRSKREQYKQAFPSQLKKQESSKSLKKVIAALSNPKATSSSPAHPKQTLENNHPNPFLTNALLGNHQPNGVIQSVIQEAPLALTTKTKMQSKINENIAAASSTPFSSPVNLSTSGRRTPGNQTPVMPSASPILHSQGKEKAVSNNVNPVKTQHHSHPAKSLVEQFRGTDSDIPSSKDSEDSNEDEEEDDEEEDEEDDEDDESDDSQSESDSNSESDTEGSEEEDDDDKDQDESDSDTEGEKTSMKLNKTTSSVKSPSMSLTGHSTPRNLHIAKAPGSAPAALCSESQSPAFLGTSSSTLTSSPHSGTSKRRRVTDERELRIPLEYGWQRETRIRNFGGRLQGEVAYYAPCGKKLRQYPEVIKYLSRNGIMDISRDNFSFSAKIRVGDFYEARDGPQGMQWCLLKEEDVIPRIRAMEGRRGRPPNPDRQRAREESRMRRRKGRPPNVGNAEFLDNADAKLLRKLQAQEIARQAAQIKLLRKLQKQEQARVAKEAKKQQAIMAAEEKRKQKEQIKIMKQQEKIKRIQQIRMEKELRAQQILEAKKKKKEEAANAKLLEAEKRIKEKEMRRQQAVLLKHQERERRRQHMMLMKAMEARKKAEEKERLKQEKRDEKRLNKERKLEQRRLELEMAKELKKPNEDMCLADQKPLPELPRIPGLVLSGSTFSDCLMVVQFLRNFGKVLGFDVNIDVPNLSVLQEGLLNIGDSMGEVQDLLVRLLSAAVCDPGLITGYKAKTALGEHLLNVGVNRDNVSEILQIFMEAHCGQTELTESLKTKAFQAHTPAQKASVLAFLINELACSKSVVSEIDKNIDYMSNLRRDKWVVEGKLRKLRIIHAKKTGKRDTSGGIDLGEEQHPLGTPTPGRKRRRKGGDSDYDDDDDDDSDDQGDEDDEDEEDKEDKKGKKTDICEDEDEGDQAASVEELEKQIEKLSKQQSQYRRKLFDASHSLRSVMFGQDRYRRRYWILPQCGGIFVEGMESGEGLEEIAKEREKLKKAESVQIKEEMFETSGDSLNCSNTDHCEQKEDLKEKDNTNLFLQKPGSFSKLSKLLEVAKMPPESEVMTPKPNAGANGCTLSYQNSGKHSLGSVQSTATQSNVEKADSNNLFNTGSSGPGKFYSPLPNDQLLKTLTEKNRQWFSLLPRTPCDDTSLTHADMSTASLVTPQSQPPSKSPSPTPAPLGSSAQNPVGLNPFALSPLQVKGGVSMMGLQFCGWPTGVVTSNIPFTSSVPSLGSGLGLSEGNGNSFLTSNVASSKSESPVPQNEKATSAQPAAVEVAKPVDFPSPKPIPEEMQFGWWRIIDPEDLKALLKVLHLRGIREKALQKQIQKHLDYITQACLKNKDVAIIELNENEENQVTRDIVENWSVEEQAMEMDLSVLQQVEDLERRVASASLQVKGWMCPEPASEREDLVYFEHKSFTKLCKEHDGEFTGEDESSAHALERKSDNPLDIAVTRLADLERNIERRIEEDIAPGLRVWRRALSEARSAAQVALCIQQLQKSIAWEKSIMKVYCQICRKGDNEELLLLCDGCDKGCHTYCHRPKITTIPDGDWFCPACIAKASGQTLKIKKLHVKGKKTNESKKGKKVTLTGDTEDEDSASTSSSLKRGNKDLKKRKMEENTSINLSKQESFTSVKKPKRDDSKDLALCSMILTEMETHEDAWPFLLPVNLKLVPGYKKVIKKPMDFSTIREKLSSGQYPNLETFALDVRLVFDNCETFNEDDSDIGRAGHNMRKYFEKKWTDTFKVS
Chain of UniProt Q9P289 (whole entry, looked up): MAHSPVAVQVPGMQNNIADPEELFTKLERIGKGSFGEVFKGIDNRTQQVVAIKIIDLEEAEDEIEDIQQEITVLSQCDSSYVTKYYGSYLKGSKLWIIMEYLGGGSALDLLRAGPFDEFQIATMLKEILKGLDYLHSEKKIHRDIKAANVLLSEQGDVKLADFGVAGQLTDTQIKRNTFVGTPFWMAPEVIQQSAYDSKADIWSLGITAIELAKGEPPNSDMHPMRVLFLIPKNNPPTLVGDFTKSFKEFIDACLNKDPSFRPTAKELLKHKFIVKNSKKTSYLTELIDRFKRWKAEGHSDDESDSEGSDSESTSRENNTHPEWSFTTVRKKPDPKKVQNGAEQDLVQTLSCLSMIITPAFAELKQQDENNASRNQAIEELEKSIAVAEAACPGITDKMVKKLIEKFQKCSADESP
Chain of UniProt Q0P543 (whole entry, looked up): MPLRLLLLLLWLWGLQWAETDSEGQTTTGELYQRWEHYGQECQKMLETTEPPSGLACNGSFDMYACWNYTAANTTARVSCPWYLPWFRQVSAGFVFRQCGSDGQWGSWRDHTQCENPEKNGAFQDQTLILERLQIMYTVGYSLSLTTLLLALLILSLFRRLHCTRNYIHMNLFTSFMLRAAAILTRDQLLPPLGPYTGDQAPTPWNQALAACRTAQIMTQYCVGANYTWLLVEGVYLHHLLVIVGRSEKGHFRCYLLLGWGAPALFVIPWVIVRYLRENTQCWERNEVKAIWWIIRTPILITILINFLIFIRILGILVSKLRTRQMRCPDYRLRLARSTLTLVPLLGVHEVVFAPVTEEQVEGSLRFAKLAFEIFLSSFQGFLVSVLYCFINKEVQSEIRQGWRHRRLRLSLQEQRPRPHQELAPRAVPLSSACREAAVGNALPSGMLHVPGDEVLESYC
Chain of UniProt P54646 (whole entry, looked up): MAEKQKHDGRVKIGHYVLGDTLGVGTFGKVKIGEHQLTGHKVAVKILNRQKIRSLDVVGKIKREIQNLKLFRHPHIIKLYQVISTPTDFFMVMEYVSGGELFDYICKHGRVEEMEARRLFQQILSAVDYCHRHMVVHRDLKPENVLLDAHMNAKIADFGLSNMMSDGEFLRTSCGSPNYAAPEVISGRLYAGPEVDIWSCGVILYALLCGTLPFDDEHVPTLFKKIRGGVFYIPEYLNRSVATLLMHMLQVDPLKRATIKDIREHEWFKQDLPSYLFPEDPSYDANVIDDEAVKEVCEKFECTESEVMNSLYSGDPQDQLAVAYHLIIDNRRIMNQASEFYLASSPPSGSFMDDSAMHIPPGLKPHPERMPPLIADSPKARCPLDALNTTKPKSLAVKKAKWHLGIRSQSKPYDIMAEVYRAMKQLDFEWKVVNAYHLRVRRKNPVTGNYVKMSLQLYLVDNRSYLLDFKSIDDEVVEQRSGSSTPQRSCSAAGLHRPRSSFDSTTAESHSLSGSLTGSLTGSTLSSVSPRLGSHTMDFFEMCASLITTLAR

COc1ncccc1-c1cnn2ccc(N3CCN(C(=O)OC(C)C)CC3)nc12 gave a remaining binding of 93% (PRKAA2 (Homo sapiens, UniProt P54646); binding, competition with immobilised ligand; 1 µM).
With CC[C@H](C)[C@H](NC(=O)[C@H](CO)NC(=O)[C@H](Cc1ccc(O)cc1)NC(=O)[C@H](CC(=O)O)NC(=O)[C@H](CO)NC(=O)[C@@H](NC(=O)[C@H](Cc1ccccc1)NC(=O)[C@@H](NC(=O)CNC(=O)[C@H](CCC(=O)O)NC(=O)[C@H](C)NC(=O)[C@@H](N)Cc1ccc(O)cc1)[C@@H](C)O)[C@@H](C)CC)C(=O)N[C@@H](C)C(=O)N[C@@H](CCSC)C(=O)N[C@@H](CC(=O)O)C(=O)N[C@@H](CCCCN)C(=O)N[C@H](C(=O)N[C@@H](Cc1c[nH]cn1)C(=O)N[C@@H](CCC(N)=O)C(=O)N[C@@H](CCC(N)=O)C(=O)N[C@@H](CC(=O)O)C(=O)N[C@@H](Cc1ccccc1)C(=O)N[C@H](C(=O)N[C@@H](CC(N)=O)C(=O)N[C@@H](Cc1c[nH]c2ccccc12)C(=O)N[C@@H](CC(C)C)C(=O)N[C@@H](CC(C)C)C(=O)N[C@@H](C)C(=O)N[C@@H](CCC(N)=O)C(=O)N[C@@H](CCCCN)C(=O)NCC(=O)N[C@@H](CCCCN)C(=O)N[C@@H](CCCCN)C(=O)N[C@@H](CC(N)=O)C(=O)N[C@@H](CC(=O)O)C(=O)N[C@@H](Cc1c[nH]c2ccccc12)C(=O)N[C@@H](CCCCN)C(=O)N[C@@H](Cc1c[nH]cn1)C(=O)N[C@@H](CC(N)=O)C(=O)N[C@H](C(=O)N[C@H](C(=O)N[C@@H](CCC(N)=O)C(=O)O)[C@@H](C)O)[C@@H](C)CC)C(C)C)[C@@H](C)CC the Emax was 96% (Gastric inhibitory polypeptide receptor (Mus musculus, UniProt Q0P543); β-arrestin recruitment, agonist).
The remaining binding of Cc1nn(C)cc1-c1nc2c(N3CCN(Cc4ccc(Cl)cc4)CC3)c(Cl)cnc2[nH]1 is reported as 100% (PIK3CA (Homo sapiens, UniProt P42336); binding, competition with immobilised ligand; 1 µM).
CCCCC/C=C\C/C=C\C/C=C\C/C=C\CCCC(=O)OC(CO)CO gave an Emax of 68% (CNR2 (Homo sapiens, UniProt P34972); β-arrestin recruitment, agonist).
The remaining binding of [2H]c1c([2H])c([C@]2([2H])CCCN2C(=O)C(C)(C)Oc2ccc3cn[nH]c3c2)c([2H])c([2H])c1C([2H])([2H])[2H] is reported as 99% (STK26 (Homo sapiens, UniProt Q9P289); binding, competition with immobilised ligand; 1 µM).
The ΔTm of CCN(CC)CCCC[C@H](NC(=O)[C@H](CC(C)C)NC(=O)[C@H](C)NC(=O)[C@H](Cc1ccccc1)NC(=O)c1ccc(C(C)(C)C)cc1)C(=O)N[C@@H](CO)C(=O)OC is reported as 0.17 °C (Bromodomain adjacent to zinc finger domain protein 2B, bromodomain (BAZ2B, Homo sapiens, UniProt Q9UIF8); thermal stability, DSF; 25 µM).
CC(C)CC(=O)OC[C@H]1O[C@@](C#N)(c2ccc3c(N)ncnn23)[C@H](O)[C@@H]1O has an inhibition of 4% (ADRB2 (Homo sapiens, UniProt P07550); cell-free assay; 20 µM).
For Nc1ncc(-c2nc(N3CCOCC3)nc(N3CCOCC3)n2)c(C(F)F)n1, the remaining binding was 0% (PIK3CA (Homo sapiens, UniProt P42336, Q546K); binding, competition with immobilised ligand; 10 µM).

Excerpt of the above:
The remaining binding of Cc1nn(C)cc1-c1nc2c(N3CCN(Cc4ccc(Cl)cc4)CC3)c(Cl)cnc2[nH]1 is reported as 100% (PIK3CA (Homo sapiens, UniProt P42336); binding, competition with immobilised ligand; 1 µM).
